Assay results from different studies.
Each numbered part is a random draw from the data of one study; scales do not carry over between parts. Several values in a cell are separate wells, animals, samples, runs or records.
Chain of UniProt P31749 (whole entry, looked up): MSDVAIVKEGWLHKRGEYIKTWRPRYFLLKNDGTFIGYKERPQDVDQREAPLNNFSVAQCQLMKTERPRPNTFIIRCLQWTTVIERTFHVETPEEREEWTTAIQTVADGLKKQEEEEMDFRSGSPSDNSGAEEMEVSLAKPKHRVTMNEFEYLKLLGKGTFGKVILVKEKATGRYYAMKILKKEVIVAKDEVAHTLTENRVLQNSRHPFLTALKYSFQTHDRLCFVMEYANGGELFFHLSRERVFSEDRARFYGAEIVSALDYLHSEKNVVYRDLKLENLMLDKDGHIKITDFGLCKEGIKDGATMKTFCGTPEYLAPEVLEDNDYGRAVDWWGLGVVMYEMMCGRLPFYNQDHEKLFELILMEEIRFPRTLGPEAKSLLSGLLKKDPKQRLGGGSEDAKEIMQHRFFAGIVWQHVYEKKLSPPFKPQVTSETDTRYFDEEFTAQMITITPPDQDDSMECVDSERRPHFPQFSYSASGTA
Chain of UniProt P04049 (whole entry, looked up): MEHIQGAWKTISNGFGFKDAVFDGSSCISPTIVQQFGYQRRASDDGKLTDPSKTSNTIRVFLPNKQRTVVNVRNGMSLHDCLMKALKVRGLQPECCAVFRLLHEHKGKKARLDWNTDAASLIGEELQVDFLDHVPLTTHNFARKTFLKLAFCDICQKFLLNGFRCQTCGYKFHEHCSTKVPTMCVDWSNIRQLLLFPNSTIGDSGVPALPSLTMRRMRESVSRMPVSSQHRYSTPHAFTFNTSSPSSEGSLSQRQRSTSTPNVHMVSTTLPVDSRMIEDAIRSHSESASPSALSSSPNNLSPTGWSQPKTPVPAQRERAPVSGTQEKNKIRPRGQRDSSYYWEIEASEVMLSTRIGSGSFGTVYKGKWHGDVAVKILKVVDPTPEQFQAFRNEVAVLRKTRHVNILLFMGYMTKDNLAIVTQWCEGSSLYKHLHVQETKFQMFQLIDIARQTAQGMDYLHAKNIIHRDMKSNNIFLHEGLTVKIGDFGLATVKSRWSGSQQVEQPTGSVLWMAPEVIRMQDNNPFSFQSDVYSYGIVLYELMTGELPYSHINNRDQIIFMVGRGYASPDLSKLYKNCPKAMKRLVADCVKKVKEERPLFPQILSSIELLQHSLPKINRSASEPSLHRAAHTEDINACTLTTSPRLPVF
Chain of UniProt O00329 (whole entry, looked up): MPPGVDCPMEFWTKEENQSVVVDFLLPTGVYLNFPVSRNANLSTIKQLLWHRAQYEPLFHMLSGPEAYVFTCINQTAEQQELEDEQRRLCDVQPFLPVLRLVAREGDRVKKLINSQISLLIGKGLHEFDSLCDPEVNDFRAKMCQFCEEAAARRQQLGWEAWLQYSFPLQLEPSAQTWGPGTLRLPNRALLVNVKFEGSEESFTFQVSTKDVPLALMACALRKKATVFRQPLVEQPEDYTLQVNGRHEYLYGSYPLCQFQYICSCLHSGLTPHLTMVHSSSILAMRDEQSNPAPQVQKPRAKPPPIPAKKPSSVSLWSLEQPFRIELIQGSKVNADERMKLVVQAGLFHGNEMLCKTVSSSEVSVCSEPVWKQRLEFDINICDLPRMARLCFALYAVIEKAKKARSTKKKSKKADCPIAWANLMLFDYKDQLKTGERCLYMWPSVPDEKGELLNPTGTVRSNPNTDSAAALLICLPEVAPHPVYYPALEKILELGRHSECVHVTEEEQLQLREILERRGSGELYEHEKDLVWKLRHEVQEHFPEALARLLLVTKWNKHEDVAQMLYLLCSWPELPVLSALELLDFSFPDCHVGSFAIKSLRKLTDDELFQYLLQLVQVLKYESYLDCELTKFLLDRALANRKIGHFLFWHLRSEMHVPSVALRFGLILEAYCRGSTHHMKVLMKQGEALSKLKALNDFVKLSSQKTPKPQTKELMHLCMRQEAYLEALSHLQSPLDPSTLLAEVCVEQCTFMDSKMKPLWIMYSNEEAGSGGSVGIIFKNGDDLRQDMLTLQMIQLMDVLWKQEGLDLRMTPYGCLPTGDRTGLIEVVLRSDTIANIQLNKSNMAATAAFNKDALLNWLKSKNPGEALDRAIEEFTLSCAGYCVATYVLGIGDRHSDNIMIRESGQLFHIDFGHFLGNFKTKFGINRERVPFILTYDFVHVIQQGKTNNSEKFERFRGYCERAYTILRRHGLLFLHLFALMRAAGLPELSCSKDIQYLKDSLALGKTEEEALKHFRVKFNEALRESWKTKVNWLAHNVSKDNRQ
Chain of UniProt P21860 (whole entry, looked up): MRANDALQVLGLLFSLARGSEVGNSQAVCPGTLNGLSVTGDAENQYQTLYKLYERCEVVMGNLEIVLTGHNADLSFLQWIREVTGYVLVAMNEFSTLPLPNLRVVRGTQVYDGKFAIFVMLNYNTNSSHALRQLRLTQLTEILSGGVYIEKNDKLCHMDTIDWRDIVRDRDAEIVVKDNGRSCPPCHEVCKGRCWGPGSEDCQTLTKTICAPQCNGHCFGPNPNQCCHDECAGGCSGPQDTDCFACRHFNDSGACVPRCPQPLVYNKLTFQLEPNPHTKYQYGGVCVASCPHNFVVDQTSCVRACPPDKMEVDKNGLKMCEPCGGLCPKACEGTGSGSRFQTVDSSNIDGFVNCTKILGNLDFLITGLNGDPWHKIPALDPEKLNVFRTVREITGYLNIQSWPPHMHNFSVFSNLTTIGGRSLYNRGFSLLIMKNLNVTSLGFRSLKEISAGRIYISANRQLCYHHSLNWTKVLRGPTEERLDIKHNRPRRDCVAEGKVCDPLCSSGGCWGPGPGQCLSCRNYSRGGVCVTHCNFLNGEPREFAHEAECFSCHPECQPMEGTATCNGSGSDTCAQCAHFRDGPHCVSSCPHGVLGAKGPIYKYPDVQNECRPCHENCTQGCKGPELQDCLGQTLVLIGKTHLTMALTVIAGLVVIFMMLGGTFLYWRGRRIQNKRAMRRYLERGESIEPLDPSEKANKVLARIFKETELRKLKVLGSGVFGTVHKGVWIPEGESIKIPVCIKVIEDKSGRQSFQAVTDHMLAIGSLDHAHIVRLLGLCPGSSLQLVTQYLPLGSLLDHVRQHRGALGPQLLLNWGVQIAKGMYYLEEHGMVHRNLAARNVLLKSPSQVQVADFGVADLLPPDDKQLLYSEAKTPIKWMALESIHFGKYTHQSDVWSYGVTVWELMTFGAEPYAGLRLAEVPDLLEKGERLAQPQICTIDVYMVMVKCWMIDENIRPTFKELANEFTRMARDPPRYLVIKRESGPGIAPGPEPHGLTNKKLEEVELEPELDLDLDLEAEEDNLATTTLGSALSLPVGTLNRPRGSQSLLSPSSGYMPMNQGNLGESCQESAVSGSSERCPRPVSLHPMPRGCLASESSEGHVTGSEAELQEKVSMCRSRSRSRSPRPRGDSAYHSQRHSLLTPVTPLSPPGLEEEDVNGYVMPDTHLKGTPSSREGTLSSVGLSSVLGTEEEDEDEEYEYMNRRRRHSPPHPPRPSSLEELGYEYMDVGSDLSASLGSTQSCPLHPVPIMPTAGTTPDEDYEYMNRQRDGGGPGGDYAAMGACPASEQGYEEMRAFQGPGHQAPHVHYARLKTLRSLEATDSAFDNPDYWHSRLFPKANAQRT
Chain of UniProt P10721 (whole entry, unmodified, looked up): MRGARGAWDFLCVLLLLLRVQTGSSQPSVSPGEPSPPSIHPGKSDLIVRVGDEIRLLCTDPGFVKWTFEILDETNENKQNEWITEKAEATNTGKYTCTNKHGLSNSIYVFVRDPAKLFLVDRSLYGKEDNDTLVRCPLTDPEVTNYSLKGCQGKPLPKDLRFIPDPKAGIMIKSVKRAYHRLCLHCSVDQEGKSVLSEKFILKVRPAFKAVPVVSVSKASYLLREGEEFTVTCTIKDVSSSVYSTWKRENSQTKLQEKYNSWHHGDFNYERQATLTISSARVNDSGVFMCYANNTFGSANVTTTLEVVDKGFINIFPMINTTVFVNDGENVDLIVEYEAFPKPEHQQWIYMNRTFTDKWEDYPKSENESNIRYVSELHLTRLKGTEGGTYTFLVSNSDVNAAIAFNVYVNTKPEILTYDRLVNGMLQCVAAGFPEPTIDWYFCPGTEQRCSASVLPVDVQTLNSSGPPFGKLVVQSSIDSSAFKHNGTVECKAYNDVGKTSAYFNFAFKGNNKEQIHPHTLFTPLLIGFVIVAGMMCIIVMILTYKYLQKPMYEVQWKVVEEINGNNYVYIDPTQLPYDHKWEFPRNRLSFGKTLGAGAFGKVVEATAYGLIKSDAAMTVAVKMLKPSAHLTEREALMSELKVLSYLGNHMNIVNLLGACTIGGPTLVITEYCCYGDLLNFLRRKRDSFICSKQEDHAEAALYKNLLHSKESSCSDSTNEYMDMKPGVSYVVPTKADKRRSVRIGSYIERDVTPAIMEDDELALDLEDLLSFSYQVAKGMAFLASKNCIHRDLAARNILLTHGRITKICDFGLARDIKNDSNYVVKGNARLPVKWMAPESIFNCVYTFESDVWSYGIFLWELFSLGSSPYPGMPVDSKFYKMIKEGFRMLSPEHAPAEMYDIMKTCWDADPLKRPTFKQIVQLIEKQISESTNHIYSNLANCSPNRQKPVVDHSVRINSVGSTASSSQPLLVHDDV

Sample 1
Host: human
Sample: microsomes or S9
Concentration: 2 µM
Time: 0.5 h
`c1ccc(Cn2ncc3/c(=N/c4cccc5ccccc45)nc[nH]c32)cc1` has a remaining compound of 78.7%.
`CCN1CCCCC1CNc1nccc(-c2ccc(C)nc2C)n1` (stereo not shown) has a remaining compound of 102%.
With `Cc1nc2sc(C(=O)N(C)c3ccccc3)c(N)c2c(C)c1C` the remaining compound was 1.45%.
With `Cc1cc(C)c(CNC(C)CCC(C)C)c(C)c1CO` (stereo not shown) the remaining compound was 48.3%.
With `COC(=O)CCC(=O)Nc1sc(C)c(C)c1C(N)=O` the remaining compound was > 99.9%.
`COc1cc(OC)cc(N(Cc2c(F)cccc2Cl)C(=O)Cc2ccncc2)c1` has a remaining compound of 7.32%.
The remaining compound of `N#Cc1cnc(N[C@H]2CC[C@H](Nc3cnc(C#N)cn3)CC2)cn1` is reported as > 99.9%.
With `CC(C)COC(C)C(=O)NCCNC(=O)C(C)C` (stereo not shown) the remaining compound was 88.7%.
With `CC(C)c1nc2c(c(OC3CCCN(S(=O)(=O)c4cccs4)C3)n1)CCOCC2` (stereo not shown) the remaining compound was 0.0269%.
With `Cc1cccc(C2=C(N)OC(c3ccc(Cl)cc3)C2=O)n1` (stereo not shown) the remaining compound was 11.8%.
`Fc1ccc(CNc2c(-c3ccccn3)nc3cnccn23)cc1` has a remaining compound of 0.00891%.

Sample 2
Compound: NS(=O)(=O)c1cc(NC(=O)C2(c3ccccc3Cl)CC2)ccc1Oc1cccc(Cl)c1
Technique: competition with immobilised ligand
Concentration: 1 µM
It gave 68% for remaining binding (NLK (Homo sapiens, UniProt Q9UBE8); cell-free assay).
The remaining binding was 100% (MAP3K14 (Homo sapiens, UniProt Q99558); cell-free assay).
It gave 73% for remaining binding (STK4 (Homo sapiens, UniProt Q13043); cell-free assay).
For CILK1 (Homo sapiens, UniProt Q9UPZ9); binding: remaining binding read 100%.
For PIK3CD (Homo sapiens, UniProt O00329); cell-free assay: remaining binding read 99%.
It gave 84% for remaining binding (ERBB3 (Homo sapiens, UniProt P21860); cell-free assay).
It gave 78% for remaining binding (CIT (Homo sapiens, UniProt O14578); cell-free assay).
For EPHB1 (Homo sapiens, UniProt P54762); cell-free assay: remaining binding read 78%.
For EGFR (Homo sapiens, UniProt P00533, L861Q); cell-free assay: remaining binding read 76%.
The remaining binding was 68% (LATS2 (Homo sapiens, UniProt Q9NRM7); cell-free assay).
It gave 100% for remaining binding (CLK4 (Homo sapiens, UniProt Q9HAZ1); cell-free assay).
PIK3C2B (Homo sapiens, UniProt O00750); cell-free assay — remaining binding: 100%.
AKT1 (Homo sapiens, UniProt P31749); cell-free assay — remaining binding: 78%.
The remaining binding was 89% (PRKCD (Homo sapiens, UniProt Q05655); cell-free assay).
For SRPK2 (Homo sapiens, UniProt P78362); cell-free assay: remaining binding read 100%.
For ROCK1 (Homo sapiens, UniProt Q13464); cell-free assay: remaining binding read 100%.
It gave 100% for remaining binding (MAP2K7 (Homo sapiens, UniProt O14733); cell-free assay).
It gave 89% for remaining binding (KIT (Homo sapiens, UniProt P10721, L576P); cell-free assay).
It gave 70% for remaining binding (Tyrosine-protein kinase ABL1, phosphorylated (ABL1, Homo sapiens, UniProt P00519, M351T); cell-free assay).
The remaining binding was 81% (RAF1 (Homo sapiens, UniProt P04049); cell-free assay).

Sample 3
Target: Serine/threonine-protein kinase Sgk2 (SGK2, Homo sapiens, UniProt Q9HBY8)
Chain of UniProt Q9HBY8 (whole entry, looked up): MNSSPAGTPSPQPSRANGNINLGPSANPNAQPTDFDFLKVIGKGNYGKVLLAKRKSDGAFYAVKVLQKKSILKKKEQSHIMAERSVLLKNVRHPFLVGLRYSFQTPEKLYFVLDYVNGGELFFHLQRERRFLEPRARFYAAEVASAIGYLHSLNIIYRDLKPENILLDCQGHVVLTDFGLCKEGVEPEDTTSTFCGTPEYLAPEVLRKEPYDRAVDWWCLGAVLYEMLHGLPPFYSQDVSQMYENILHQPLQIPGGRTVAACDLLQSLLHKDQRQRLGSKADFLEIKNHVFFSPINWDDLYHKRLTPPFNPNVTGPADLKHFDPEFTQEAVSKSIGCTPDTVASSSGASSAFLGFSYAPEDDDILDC
Read-out: enzyme activity
Mode: inhibitor
Concentration: 0.5 µM
Reference: control
The remaining activity of `COc1cc2c(cc1OC)-c1[nH]nc(Nc3cccc(F)c3)c1C2` is reported as 98.6%.
With `CCN(CC)CCNC(=O)c1c(C)[nH]c(/C=C2\C(=O)Nc3ccc(Cl)cc32)c1C` the remaining activity was 62.8%.
For `CCOc1nc(NC(=O)Cc2cc(OC)ccc2OC)cc(N)c1C#N`, the remaining activity was 102%.
With `Cc1nc2cc3nc(-c4cccs4)cnc3cc2n1C` the remaining activity was 115%.
`Cn1nc2c3c(cccc31)C(=O)c1ccccc1-2` gave a remaining activity of 98.9%.
`COc1cc2ncnc(Nc3ccc(O)c(Br)c3)c2cc1OC` has a remaining activity of 95.1%.
With `O=c1cc(-c2cccc3c2Sc2ccccc2S3)oc(N2CCOCC2)c1` the remaining activity was 115%.
`O=C(Nc1cccc(Nc2nccc(Nc3cccc(C(F)(F)F)c3)n2)c1)C1CC1` has a remaining activity of 118%.

Mixed results
For `COCc1cc(C(=O)Nc2cc([C@H]3CC[C@@H](OC(=O)NC(C)C)C3)[nH]n2)n(C)n1`, the cell count was 0.475 and 0.455 and 0.391 (NCI-H1048; Vi-Cell; 250 nM, 6 d; reference: DMSO).

For quick reference, copied from above (sample 1):
With `CC(C)c1nc2c(c(OC3CCCN(S(=O)(=O)c4cccs4)C3)n1)CCOCC2` (stereo not shown) the remaining compound was 0.0269%.
`CCN1CCCCC1CNc1nccc(-c2ccc(C)nc2C)n1` (stereo not shown) has a remaining compound of 102%.
With `COC(=O)CCC(=O)Nc1sc(C)c(C)c1C(N)=O` the remaining compound was > 99.9%.
`c1ccc(Cn2ncc3/c(=N/c4cccc5ccccc45)nc[nH]c32)cc1` has a remaining compound of 78.7%.
